Measurements pooled from the literature.
Numbered parts are unrelated; each lists some results of a single study.

Block 1
Target: Histone acetyltransferase KAT6A, winged helix 1, GST fusion (KAT6A, Homo sapiens, UniProt Q92794, residues 1-85)
Technique: protein binding microarray
Form: double-stranded DNA, one strand shown
Medium: in vitro
Tested at: not given
Setting: 8-mer, flanks averaged, mean of 2 arrays, mostly near background
Baseline: not given
Reading: higher = stronger binding
Residues (chain): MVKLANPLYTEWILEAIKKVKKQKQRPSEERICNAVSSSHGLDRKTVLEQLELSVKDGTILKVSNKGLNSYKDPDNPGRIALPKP
The E-score of `AGTGTAGA` is reported as -0.186.
`GGATCACC` gave an E-score of -0.0861.
`ACTCTAAC` gave an E-score of -0.0977.
`CAATGTAA` gave an E-score of 0.0359.
`AACGGCGC` gave an E-score of 0.377.
For `CAACGGAA`, the E-score was 0.0643.
With `CATTTTTA` the E-score was -0.0385.
`TATGCCAA` has an E-score of -0.236.
The E-score of `AGTGGGAA` is reported as -0.18.
The E-score of `AGTGAAAA` is reported as -0.0732.
With `AAAGTGAA` the E-score was -0.0371.
`CCATCTGA` has an E-score of -0.201.
With `CACTGGGG` the E-score was -0.159.
`GCGAAATA` gave an E-score of -0.00978.
`AACCTATT` has an E-score of -0.0379.
For `CAACCACC`, the E-score was -0.141.
`GTGCTCAA` has an E-score of -0.124.
`CTTGGGCC` has an E-score of 0.0227.
With `CTCTTATC` the E-score was -0.149.
For `GGTCGTTA`, the E-score was -0.0258.
`CGCGTCAG` gave an E-score of 0.229.
With `CAGTTAGG` the E-score was -0.203.

Block 2
Target: RING finger protein unkempt homolog, zinc fingers 1-6, GST-SBP tag (UNK, Homo sapiens, UniProt Q9C0B0, residues 30-357)
Technique: RNA Bind-n-Seq
Form: RNA
Medium: in vitro
Tested at: not given
Setting: RNA with constant flanks, human and mouse sites, ends assumed
Baseline: input RNA pool
Reading: higher = stronger binding
All sequences stand within: GGGAGUUCUACAGUCCGACGAUC … CAACAGAGGAUUGAGCAUCA
Target sequence (chain): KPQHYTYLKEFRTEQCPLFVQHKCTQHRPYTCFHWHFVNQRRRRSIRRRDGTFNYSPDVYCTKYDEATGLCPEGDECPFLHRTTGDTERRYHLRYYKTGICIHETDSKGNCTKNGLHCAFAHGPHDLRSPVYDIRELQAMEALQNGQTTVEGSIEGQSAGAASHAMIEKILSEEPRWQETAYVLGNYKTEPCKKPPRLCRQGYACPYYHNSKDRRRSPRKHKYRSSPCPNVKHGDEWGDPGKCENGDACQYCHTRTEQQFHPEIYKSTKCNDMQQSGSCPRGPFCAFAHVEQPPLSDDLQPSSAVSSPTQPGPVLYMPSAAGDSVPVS
The bound/input enrichment of `ACAAUACUUUCCGUGGUCGUAUUCAUUAAAUGUUACUACAUUUCUGAAUUUUUGCAAAAAUGUAUUUUAUCAUAAAAUGGCAUUAUUUUAGAAAAUUUUAAAAACUGACAUGGUCAAUUC` is reported as 10.6 ratio.
`GGGAGCAUUGCAGAGCAUUGUGCCUCUUUUCAUAUAUAUGAAUAAGUUUUACAUCGAAACCAAGCUUAACAGAGACUUAAAAGAUGACCUUAUAAAGCUGUUUACGGAACAUGUUGCAGA` has a bound/input enrichment of 0.182 ratio.
`CACCUCAAAGUCUUUGCAAAACCCAAAAUCACAUAUGUAGAGAACCAGACUGCCAUGGAAUUAGAGGAGCAGGUCACUCUUACCUGUGAAGCCUCCGGAGACCCCAUUCCCUCCAUCACC` gave a bound/input enrichment of 0.352 ratio.
With `GGAUCAGACCUGUGAACUACCCAGAAGAAAUUGUCUGCUGCCCUUUUCCAAUCCAGUGAAUUUAGAUGCCCCUGAAGACAAGGACAGCCCUUUCGGAUGAUCCAGAUUCCAGUACCAGUA` the bound/input enrichment was 0.149 ratio.
With `GAAGACCAAAUCGUGUCCAAGGCAGCGUACGUGCUCUUCUACCAGAGACAGGACACUUUCAGUGGGACUGGCUUCUUCCCUCUUGACCGAGAAACUAAAGGUGCUUCAGCUGCCACAGGU` the bound/input enrichment was 0.0541 ratio.
`UUUCUAUUGCAGCAGACCAUGCUACGAGUGAAGGAUCCUAAGAAGUCACUGGAUUUUUAUACUAGAGUUCUUGGAAUGACGCUAAUCCAAAAAUGUGAUUUUCCCAUUAUGAAGUUUUCA` has a bound/input enrichment of 0.101 ratio.
The bound/input enrichment of `AAACGCCGUUUCAGGAAGUUCCUGGUUUAUGUUGCCAACUUUGAUGAAAAAGAUCCUAGAACUUUCGAGGGUGUUGAUCCUAAGAAGACCUCCAUGAGAGAUGUGUAUAAGAAGUUUGAU` is reported as 0.176 ratio.
For `UUCCCCCACUGGGAAUGCUGGCUGGGAGAGCCAUGACUACCAGACUUUUCCUCAGGCUCCUUGGCAUGUUAGUCUGAAUUGUUCUUGAGCACUGUACUACUGACCCAACAACUGUGACUA`, the bound/input enrichment was 0.178 ratio.
`GAGGAUGGAGAAGACCAGCCAAAGCAAGUUUAUGUUGAUAAGUUGGCUGAAUUAAAAAAUCUAGGUCAACCUAUUAAGAUACGUUUCCAGGAAUCUGAAGAACGACCAAAAUUAUUUGAA` has a bound/input enrichment of 0.392 ratio.
`CACAUGCUGCCGGGCCAGAACCAGUUCCUACUGCCUGGCGCCCCGGCGGUCCAGCUCCCGCAGCAGCUCUCAGCCCUGCCGGCCAACGUGGGCGGGCAGAUCCUGGCGGCCGCUGCCCCC` has a bound/input enrichment of 0.101 ratio.
With `CGGCUAUUUGGUGAAGUCACCAGGCCUACUAAUUCCAAGUCUAUGAAAGUGGUGAAACUGUUUAGUGAACUGCCCUUGGCCAAGAAGAAGGAGACUUAUGAUUGGUAUCCAAAUCACCAC` the bound/input enrichment was 0.131 ratio.

Block 3
Target: Prothrombin, mature alpha-thrombin (F2, Homo sapiens, UniProt P00734)
Technique: aptamer microarray, sandwich
Form: DNA with 2'F-ANA
Medium: in vitro
Tested at: 200 nM
Setting: whole 15-mer aptamer, many near background
With: Cy3 exosite-II aptamer, 400 nM
Reading: higher = stronger binding
Strand: GGTTGGTGTGGTTGG
For `2'F-ANA at 1 2 6 7 8 9 10 11 12 13`, “mean fluorescence intensity” read 63.4 a.u.
`2'F-ANA at 3 4 5 7 11 13` — result for “mean fluorescence intensity”: 80.5 a.u.
Under “mean fluorescence intensity”, `2'F-ANA at 1 2 3 5 6 13 14 15` is recorded as 48.4 a.u.
Under “mean fluorescence intensity”, `2'F-ANA at 1 2 6 7 8 10 11 12 13 14 15` is recorded as 51.9 a.u.
`2'F-ANA at 1 4 5 7 11 12 13 14`: “mean fluorescence intensity” 44.7 a.u.
For `2'F-ANA at 1 3 4 5 7 8 9 12 14`, “mean fluorescence intensity” read 53.1 a.u.
Under “mean fluorescence intensity”, `2'F-ANA at 8 9 10 13 14` is recorded as 111 a.u.
For `2'F-ANA at 7 9 10 11 12 13 14 15`, “mean fluorescence intensity” read 106 a.u.
`2'F-ANA at 3 4 6 7 8 14 15`: “mean fluorescence intensity” 369 a.u.
`2'F-ANA at 2 3 7 8 9` — result for “mean fluorescence intensity”: 846 a.u.
`2'F-ANA at 1 4 7 8 9 10 12 13 15`: “mean fluorescence intensity” 111 a.u.
For `2'F-ANA at 1 3 6 7 8 12 13 15`, “mean fluorescence intensity” read 445 a.u.
For `2'F-ANA at 1 2 3 6 8 11 13 14`, “mean fluorescence intensity” read 71.7 a.u.
`2'F-ANA at 1 2 5 6 7 10 13 14 15` — result for “mean fluorescence intensity”: 49.4 a.u.
`2'F-ANA at 1 3 5 7 11 13 15` — result for “mean fluorescence intensity”: 49.5 a.u.
`2'F-ANA at 1 2 4 6 7 9 10 13 14`: “mean fluorescence intensity” 68.2 a.u.
Under “mean fluorescence intensity”, `2'F-ANA at 6 7 9 12 15` is recorded as 694 a.u.
Under “mean fluorescence intensity”, `2'F-ANA at 1 3 4 5 9 11 13 14 15` is recorded as 50 a.u.
`2'F-ANA at 3 5 6 7 8 10 13 15`: “mean fluorescence intensity” 60.3 a.u.
`2'F-ANA at 1 6 8 10 12 13 14`: “mean fluorescence intensity” 46.8 a.u.
Under “mean fluorescence intensity”, `2'F-ANA at 5 6 7 9 11 12 15` is recorded as 107 a.u.
`2'F-ANA at 6 7 8 9 13` — result for “mean fluorescence intensity”: 375 a.u.
For `2'F-ANA at 2 4 5 6 7 10 15`, “mean fluorescence intensity” read 46.9 a.u.
Under “mean fluorescence intensity”, `2'F-ANA at 1 2 3 4 5 12 13 14 15` is recorded as 67.1 a.u.
For `2'F-ANA at 1 2 5 11 14`, “mean fluorescence intensity” read 48 a.u.

Block 4
Target: RNA binding protein fox-1 homolog 2, RRM domain, GST-SBP tag (RBFOX2, Homo sapiens, UniProt O43251-10, residues 100-194)
Technique: RNA Bind-n-Seq
Form: RNA
Medium: in vitro
Tested at: 365 nM
Setting: natural RNA segment, single round, ends assumed
Baseline: no-protein control
Reading: higher = stronger binding
All sequences stand within: GGGAGUUCUACAGUCCGACGAUC … UGGAAUUCUCGGGUGCCAA
Construct (chain): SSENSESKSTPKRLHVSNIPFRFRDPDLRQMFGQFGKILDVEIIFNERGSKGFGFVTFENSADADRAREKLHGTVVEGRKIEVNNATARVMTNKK
`AGAUCAGUCAGUAUUCUUACUUGUAGUUGAUGAGCACGAGGAGGGCUCCGUGGCUGCCUGCUACUAGCCCUGAGUUCUUAAUGGGCUCUGGAGAGCACCUCCAUUAUCUC` — result for “RBNS enrichment (R)”: 3.57.
For `AAGAGAUUCUUCCACCUUACUCUGCAGCUGCCUCUGGAAGAACUUUGGGCUGCUGGGGCUGAGCUGUCUGCUUGAUGCUGACAGACUCCUAGUGUCAGCUCCCAGGCCGC`, “RBNS enrichment (R)” read 0.329.
`UGUUUGUGACUUAUGGGCUUAUUUUACAGACAAGAUGAGAGUUACCACUCUAAGAAAACAAACAGCAAGUCUCAGCAACAUAACAAGAAUACACAUUGUGAGGCAGAUGU`: “RBNS enrichment (R)” 0.75.
Under “RBNS enrichment (R)”, `UGGUUUUAGAGAACUAAUUUUGUUUUAGCAUUAAACUGUUGAACUUUUUUUUGUACUUAGAAAACCUAGAUACUGCAGUCAGAUUUUGGAAACUGCCGUAUAGUCACUGU` is recorded as 0.398.
Under “RBNS enrichment (R)”, `GCACCGCUUCCUGGUCUAUUUGCAGAGGUGGUACCCCUCGCUGCCUCCAGGAGAGAGCGCUCCAGGUACUCUACCGACUGAGACAGGUCCCAAGCCCUAACAGGCCUUCA` is recorded as 0.421.
For `AAGAAUUUUGUUUAUAUUGGGUUGGGGACCUAUAGGUUUAAAAUAGAAUGUCAGUCAGCUGACUUAAAAAACAUUGGUUUUACUAAGUCUGCCUUCCCCUUCUAAGGAAG`, “RBNS enrichment (R)” read 0.861.
`UUGCAUGAUGAGAGAGGAAGGGUUUGCCAUAGAGAGCUGAAAUGGGGAUUUAGACUGAUGUGUGCAUUGGCUGAGCUGAACCUUGGUCUCUUGAUGUCCCUGGAGAGCUG`: “RBNS enrichment (R)” 15.9.
Under “RBNS enrichment (R)”, `GGGCCUCAGAACUCUUGCUCUUCCUGGGCUGAGGGGGAAUGAGUGUUCUUGCCAUUUGCCAGCCUAAUGCGCAUGCUUUCUGCCUCUGGUAACAGGAGUGAGUGAGCCCC` is recorded as 1.3.
`AUUUUUUAAAGGGAACUUUUUACAUGACGUUUGGAAUAACAGCAUAUUGCUGACCAGUCAGUGUCAUCUCCCGGGUGAAUUUUGAUGUCACGUUAUAGUCAAAUGAGUUA`: “RBNS enrichment (R)” 0.692.
`AGGGACUGUGGCCCUGGAUUGCCCUCACUUGGGCCUCUGUCACACCGGGUUCCCCUCUGGAGCCACGGGGAACAGGGUAGGAAAAGGAGAAGAAGCACCGUGCGCAUACA`: “RBNS enrichment (R)” 0.808.
For `GCACUGAUUGUGGAAGAUCUGGCAACAUGAAAGAUUGCCAGCCUUUGUGUAUAGGACUGCGUUCGUAGGCAUCCCCCCAGUUAUUCUGAAGGUCCUGUGCUGAUGGAGGC`, “RBNS enrichment (R)” read 0.471.
`ACCAGGCUGGCCUUGAACACAGAAAGAGAUUCAUCUGCCUCUGCCUCCUGAGUGCUGGGAUUAAAGGCAAAAGCCACCACAGCCUGUUUUGUUUUGUUUUCGGUUUAAAA`: “RBNS enrichment (R)” 0.44.

Repeated from above (block 1):
With `CATTTTTA` the E-score was -0.0385.
`TATGCCAA` has an E-score of -0.236.
The E-score of `AGTGGGAA` is reported as -0.18.
The E-score of `AGTGAAAA` is reported as -0.0732.
With `AAAGTGAA` the E-score was -0.0371.
`CCATCTGA` has an E-score of -0.201.
With `CACTGGGG` the E-score was -0.159.
`GCGAAATA` gave an E-score of -0.00978.
`AACCTATT` has an E-score of -0.0379.
